Measurements of several laboratories.
Numbered parts are unrelated; each lists some results of a single study.
UniProt Q9BRS2, sequence (whole entry, looked up): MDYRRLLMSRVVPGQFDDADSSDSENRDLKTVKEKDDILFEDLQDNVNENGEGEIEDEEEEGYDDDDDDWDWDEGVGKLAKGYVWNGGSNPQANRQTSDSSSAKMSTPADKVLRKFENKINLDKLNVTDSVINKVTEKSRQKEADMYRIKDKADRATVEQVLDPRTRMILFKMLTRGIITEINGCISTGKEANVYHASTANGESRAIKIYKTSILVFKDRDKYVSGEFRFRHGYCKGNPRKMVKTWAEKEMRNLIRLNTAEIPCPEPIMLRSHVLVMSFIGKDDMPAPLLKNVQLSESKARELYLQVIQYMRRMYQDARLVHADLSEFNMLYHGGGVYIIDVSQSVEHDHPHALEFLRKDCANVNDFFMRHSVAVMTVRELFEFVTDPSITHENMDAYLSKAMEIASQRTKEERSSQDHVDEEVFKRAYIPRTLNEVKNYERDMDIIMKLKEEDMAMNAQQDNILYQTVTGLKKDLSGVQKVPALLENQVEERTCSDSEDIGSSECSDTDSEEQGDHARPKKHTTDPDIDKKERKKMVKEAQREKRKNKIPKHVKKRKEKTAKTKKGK
UniProt P43403, sequence (whole entry, looked up): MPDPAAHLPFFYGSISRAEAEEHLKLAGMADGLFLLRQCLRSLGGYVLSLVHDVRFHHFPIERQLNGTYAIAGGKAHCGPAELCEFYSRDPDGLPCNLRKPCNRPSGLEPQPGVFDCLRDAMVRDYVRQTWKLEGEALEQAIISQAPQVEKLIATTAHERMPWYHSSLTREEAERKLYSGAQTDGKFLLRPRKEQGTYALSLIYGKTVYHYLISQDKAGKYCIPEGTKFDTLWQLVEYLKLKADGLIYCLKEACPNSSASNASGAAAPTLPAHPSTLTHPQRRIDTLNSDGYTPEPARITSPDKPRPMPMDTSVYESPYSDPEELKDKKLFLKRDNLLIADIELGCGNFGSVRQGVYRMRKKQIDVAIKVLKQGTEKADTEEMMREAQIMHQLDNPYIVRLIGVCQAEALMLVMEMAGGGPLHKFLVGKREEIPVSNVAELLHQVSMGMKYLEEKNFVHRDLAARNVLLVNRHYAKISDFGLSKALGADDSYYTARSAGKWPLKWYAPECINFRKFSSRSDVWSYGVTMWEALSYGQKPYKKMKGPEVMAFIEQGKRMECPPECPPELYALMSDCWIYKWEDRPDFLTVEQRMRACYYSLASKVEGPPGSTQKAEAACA
UniProt P00519, sequence (whole entry, unmodified, looked up): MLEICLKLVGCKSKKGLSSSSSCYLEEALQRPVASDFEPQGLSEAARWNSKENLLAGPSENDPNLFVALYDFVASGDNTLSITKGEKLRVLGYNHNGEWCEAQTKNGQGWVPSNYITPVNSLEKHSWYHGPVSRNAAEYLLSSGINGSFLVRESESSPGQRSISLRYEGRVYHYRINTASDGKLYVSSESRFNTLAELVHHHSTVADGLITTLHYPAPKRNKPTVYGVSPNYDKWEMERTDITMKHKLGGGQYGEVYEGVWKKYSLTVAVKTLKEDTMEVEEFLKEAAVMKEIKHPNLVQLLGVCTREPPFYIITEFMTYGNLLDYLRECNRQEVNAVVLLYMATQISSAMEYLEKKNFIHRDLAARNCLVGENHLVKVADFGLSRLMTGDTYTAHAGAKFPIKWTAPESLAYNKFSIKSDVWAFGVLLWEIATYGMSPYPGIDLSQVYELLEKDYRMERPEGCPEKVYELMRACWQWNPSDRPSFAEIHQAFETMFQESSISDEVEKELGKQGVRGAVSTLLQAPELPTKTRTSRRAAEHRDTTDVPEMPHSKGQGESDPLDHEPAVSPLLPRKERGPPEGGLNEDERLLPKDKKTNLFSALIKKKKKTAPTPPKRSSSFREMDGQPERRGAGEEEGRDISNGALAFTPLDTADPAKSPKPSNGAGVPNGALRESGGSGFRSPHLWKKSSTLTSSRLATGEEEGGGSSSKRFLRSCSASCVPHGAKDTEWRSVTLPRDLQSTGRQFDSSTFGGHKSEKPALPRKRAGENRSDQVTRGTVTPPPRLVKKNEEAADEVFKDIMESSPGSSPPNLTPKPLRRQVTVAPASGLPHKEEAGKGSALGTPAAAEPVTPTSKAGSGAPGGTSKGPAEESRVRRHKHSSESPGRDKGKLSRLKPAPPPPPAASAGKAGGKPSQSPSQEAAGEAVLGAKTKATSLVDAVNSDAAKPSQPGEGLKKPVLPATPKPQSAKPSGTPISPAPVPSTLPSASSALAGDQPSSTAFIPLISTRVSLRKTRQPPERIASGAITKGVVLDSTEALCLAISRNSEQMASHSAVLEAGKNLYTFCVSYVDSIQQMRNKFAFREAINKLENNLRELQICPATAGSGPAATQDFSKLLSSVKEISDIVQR
UniProt P06213, sequence (whole entry, looked up): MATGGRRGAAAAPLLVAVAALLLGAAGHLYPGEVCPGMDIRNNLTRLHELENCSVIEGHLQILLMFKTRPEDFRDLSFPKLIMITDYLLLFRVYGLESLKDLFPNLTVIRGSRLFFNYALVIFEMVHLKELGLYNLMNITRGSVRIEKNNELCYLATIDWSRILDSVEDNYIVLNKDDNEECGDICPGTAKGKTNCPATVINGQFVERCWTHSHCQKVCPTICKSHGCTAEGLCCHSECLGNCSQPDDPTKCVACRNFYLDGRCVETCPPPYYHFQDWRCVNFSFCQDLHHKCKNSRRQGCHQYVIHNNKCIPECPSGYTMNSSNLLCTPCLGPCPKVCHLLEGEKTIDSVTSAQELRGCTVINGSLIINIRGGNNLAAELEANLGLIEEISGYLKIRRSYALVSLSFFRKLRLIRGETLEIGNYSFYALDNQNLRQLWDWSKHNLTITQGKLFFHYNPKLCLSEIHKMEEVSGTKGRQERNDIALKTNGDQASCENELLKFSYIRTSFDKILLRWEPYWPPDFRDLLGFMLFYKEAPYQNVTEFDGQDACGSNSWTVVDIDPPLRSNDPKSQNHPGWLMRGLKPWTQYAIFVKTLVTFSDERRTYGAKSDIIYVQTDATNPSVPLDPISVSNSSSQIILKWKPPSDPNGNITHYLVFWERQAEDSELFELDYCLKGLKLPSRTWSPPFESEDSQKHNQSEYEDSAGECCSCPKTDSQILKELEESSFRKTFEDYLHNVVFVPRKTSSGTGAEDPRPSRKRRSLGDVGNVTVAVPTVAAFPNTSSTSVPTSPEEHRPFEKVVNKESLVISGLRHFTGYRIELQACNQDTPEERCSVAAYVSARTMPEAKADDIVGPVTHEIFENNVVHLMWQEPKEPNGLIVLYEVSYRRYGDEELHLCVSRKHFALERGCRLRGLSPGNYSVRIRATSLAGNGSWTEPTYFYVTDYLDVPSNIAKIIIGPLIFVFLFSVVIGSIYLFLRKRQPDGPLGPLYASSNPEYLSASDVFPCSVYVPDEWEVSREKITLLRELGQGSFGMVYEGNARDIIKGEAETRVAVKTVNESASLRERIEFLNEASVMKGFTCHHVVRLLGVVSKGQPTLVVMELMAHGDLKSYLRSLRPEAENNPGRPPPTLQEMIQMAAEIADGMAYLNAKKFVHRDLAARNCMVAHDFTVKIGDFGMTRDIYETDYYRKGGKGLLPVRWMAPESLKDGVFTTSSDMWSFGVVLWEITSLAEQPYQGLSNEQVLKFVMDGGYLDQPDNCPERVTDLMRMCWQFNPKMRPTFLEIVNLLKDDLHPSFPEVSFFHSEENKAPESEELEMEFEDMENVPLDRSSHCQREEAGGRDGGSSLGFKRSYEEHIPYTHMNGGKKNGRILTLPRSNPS
UniProt Q8NE63, sequence (whole entry, looked up): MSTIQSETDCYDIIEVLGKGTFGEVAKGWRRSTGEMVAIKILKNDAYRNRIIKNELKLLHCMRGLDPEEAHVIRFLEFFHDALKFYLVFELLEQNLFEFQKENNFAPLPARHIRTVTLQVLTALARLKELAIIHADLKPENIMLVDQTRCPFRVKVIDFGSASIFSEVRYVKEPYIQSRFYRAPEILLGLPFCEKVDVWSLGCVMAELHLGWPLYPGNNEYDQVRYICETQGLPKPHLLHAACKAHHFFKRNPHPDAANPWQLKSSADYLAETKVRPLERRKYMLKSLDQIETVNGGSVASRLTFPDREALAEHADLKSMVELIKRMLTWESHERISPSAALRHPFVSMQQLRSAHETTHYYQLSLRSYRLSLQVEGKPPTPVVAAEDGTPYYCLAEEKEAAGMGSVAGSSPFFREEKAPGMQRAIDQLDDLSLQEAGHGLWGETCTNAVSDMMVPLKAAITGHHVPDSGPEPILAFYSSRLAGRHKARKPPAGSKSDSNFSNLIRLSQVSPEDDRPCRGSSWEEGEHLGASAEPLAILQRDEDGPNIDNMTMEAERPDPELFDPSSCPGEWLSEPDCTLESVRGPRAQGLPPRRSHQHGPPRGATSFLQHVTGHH

Block 1
Cell line: Huh-7
Concentration: 10 µM
Time: 24 h
Compound	viability [%]
CN1CCN(C(c2ccccc2)c2ccc(Cl)cc2)CC1 (stereo not drawn)	99.4
CC(=O)Nc1ccccc1	97.2
CC(=O)OCC(CCn1cnc2cnc(N)nc21)COC(C)=O	88.2

Block 2
SMILES: O=C(Nc1cccnn1)N1CC(C/C=C/c2cncc(Oc3ccc(C(F)(F)F)cn3)n2)C1
Observed: cell-free assay
Technique: competition with immobilised ligand
Concentration: 1 µM
target	remaining binding [%]
Tyrosine-protein kinase ZAP-70 (ZAP70, Homo sapiens, UniProt P43403)	90
Phosphatidylinositol 4,5-bisphosphate 3-kinase catalytic subunit alpha isoform (PIK3CA, Homo sapiens, UniProt P42336, M1043I)	100
Mitogen-activated protein kinase 1 (MAPK1, Homo sapiens, UniProt P28482)	100
Receptor-type tyrosine-protein kinase FLT3 (FLT3, Homo sapiens, UniProt P36888, F691L/ITD)	76
Eukaryotic translation initiation factor 2-alpha kinase 1 (EIF2AK1, Homo sapiens, UniProt Q9BQI3)	100
Serine/threonine-protein kinase RIO1 (RIOK1, Homo sapiens, UniProt Q9BRS2)	100
Atypical kinase COQ8A, mitochondrial (COQ8A, Homo sapiens, UniProt Q8NI60)	96
Tyrosine-protein kinase ABL1, phosphorylated (ABL1, Homo sapiens, UniProt P00519, E255K)	81
Homeodomain-interacting protein kinase 4 (HIPK4, Homo sapiens, UniProt Q8NE63)	92
Serine/threonine-protein kinase WNK1 (WNK1, Homo sapiens, UniProt Q9H4A3)	100
Insulin receptor (INSR, Homo sapiens, UniProt P06213)	100
Leucine-rich repeat serine/threonine-protein kinase 2 (LRRK2, Homo sapiens, UniProt Q5S007)	90

Block 3
Target: Interferon regulatory factor 7, full length, phosphomimetic (IRF7, Homo sapiens, UniProt Q92985, residues 1-503, S471D/S472D/S475D/S476D/S477D/S483D/S484D/S487D)
Technique: protein-binding microarray
Molecule type: double-stranded DNA, one strand shown
Matrix: in vitro
Concentration: 2200 nM top
Notes: 60-bp whole probe
Together with: salmon DNA 0.4 mg/ml
Baseline: random background probes
Direction: higher = stronger binding
All sequences stand within: GCCTAGCAC … GTCTTGATTCGCTTGACGCTGCTG
Residues (chain): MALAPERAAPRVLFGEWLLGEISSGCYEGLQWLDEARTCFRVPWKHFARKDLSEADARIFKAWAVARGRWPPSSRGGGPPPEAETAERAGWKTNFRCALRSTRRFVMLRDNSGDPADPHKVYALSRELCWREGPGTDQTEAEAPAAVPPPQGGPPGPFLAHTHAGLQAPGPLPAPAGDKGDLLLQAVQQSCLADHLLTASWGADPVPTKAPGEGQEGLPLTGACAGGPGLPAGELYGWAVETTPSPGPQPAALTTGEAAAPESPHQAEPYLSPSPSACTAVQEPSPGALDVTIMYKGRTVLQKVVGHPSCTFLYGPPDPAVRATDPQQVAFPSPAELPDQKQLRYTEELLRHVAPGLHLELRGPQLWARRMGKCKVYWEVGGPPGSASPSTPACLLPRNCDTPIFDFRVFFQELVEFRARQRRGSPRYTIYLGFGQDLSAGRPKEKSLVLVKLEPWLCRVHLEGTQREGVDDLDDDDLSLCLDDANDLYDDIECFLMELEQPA
Strand	fitted relative affinity [z-score]
TTGCATCTGGGTATTTTTCTGTGCTAG	1.14
CTCGTGGTCCTGCCCTGCCTGTGCTAG	-0.426
GACGGACTGCTTCTCCTGACGTGCTAG	0.672
GACGGTATCCAACTGCTGACGTGCTAG	0.543
GACGGACTGGGGTCTGGGGACGTGCTA	-0.8
TCAATTCTCTGCTTGGGACTGTGCTAG	0.981
GACGATATCCTTTTCCTGACGTGCTAG	1.52
TAAGATCTCAGTATCGATTAGTGCTAG	0.231

Block 4
Target: G protein-coupled receptor kinase 6 (GRK6, Homo sapiens, UniProt P43250)
UniProt P43250, sequence (whole entry, looked up): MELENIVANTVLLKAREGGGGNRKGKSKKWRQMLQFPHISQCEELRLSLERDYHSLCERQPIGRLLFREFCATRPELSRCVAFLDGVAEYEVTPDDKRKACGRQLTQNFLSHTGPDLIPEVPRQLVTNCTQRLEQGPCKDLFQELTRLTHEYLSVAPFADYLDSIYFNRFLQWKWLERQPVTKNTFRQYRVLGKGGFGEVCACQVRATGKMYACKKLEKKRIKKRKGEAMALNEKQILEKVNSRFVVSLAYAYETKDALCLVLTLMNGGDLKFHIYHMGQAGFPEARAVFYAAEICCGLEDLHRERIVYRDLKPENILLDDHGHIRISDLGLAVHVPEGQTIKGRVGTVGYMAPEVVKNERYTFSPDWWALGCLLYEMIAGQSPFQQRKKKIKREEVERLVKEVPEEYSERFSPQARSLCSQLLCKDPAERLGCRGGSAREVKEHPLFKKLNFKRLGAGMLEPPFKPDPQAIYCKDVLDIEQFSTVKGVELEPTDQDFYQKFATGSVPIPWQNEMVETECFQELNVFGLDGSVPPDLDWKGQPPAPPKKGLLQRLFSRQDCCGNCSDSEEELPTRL
Observed: enzyme activity
Mode: inhibitor
Concentration: 0.5 µM
Baseline: control
Structure (SMILES)	remaining activity [%]
CC(C)n1cnc2c(Nc3cccc(Cl)c3)nc(NCCO)nc21	88.8
Nc1nc(Nc2ccc(S(N)(=O)=O)cc2)nn1C(=S)Nc1c(F)cccc1F	89.4
O=C1NC(=O)/C(=C/c2ccc3c(c2)OC(F)(F)O3)S1	95.4

Other studies, line by line
SMILES	assay	test system	conditions	endpoint	value
CC(C)n1cnc(-c2ccc(F)cc2)c1-c1ncc(C(=O)Nc2ccc(N3CCN(C)CC3)cc2)[nH]1	phase 2a clinical trial	patients with idiopathic pulmonary fibrosis	30 mg once daily	patients with liver injury TEAE	0%
